Measured values of several laboratories.
Parts stem from different laboratories: compare values within a part only. Substitutions count along the parent as printed.

Study 1
Target: Histone acetyltransferase KAT6A, both winged helices, GST fusion (KAT6A, Homo sapiens, UniProt Q92794, residues 1-181)
Technique: protein binding microarray
Molecule type: double-stranded DNA, one strand shown
Matrix: in vitro
Tested at: not given
Notes: 8-mer, flanks averaged, mean of 2 arrays, mostly near background
Baseline: not given
Reading: higher = stronger binding
Measurement: E-score
Construct (chain): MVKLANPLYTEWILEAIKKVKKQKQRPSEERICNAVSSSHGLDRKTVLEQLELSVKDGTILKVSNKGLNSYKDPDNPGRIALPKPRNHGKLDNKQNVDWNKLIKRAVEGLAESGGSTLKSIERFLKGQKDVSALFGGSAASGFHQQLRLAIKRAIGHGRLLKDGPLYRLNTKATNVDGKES
Oligonucleotide = AGAAGATC; value = -0.0159
Oligonucleotide = ATTCCTGA; value = -0.104
Oligonucleotide = CCCACCGG; value = 0.0967
Oligonucleotide = ATTTCGCC; value = -0.0405
Oligonucleotide = AAAAGAAA; value = -0.048
Oligonucleotide = CTCGTGCC; value = -0.0222
Oligonucleotide = GTGTAGGA; value = -0.168
Oligonucleotide = CGCATGAA; value = 0.145
Oligonucleotide = CTCAGACA; value = -0.0908
Oligonucleotide = ACGACAGA; value = -0.0638
Oligonucleotide = AAGTACTG; value = -0.121
Oligonucleotide = CACGCCAA; value = 0.00844
Oligonucleotide = TGGGACAA; value = -0.205
Oligonucleotide = CGCCCGCA; value = 0.23
Oligonucleotide = ACAGCCCC; value = -0.00142
Oligonucleotide = CCGTGGGA; value = 0.0625
Oligonucleotide = TTAAACAA; value = -0.153
Oligonucleotide = CCAAGAGA; value = -0.163

Study 2
Target: ABI1, truncated, D143A, DHFR fusion (Arabidopsis thaliana)
Technique: DHFR PCA, deep sequencing
Matrix: yeast
Notes: methotrexate growth selection, single substitutions
Together with: (+)-ABA 2500 µM
Baseline: wild-type fitted maximum
Reading: higher = stronger binding
Measurement: relative binding score
Starting sequence: PYL1, truncated, DHFR fusion (Arabidopsis thaliana); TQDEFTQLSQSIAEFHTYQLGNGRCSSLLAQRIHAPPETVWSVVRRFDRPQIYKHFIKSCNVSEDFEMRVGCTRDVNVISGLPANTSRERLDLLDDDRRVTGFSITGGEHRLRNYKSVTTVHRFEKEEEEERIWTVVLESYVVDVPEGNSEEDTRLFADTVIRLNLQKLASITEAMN
Substitution = Q19G; value = 103%
Substitution = E151K; value = 93.4%
Substitution = I57K; value = -1.08%
Substitution = H16L; value = 29.1%
Substitution = P37L; value = 95.8%
Substitution = Y115E; value = -4.59%
Substitution = S117T; value = 71.2%
Substitution = L164V; value = 96%
Substitution = E14M; value = 80.5%
Substitution = D96F; value = 80%
Substitution = R111P; value = 69%
Substitution = R163A; value = 84.6%
Substitution = L91F; value = 59.4%
Substitution = S9C; value = 94%
Substitution = L94N; value = 81%
Substitution = S42C; value = 99.8%

Study 3
Target: CCNE2, cyclin fold, Cln2 fusion (human)
Technique: yeast growth competition, sequencing
Matrix: yeast
Notes: weak parent motif
Baseline: not given
Reading: higher = stronger binding
Measurement: normalised enrichment score
Starting sequence: RB1 docking peptide (human); PKPLKKLRFDIEG
Substitution = PKPLKELRFDIEG [K6E]; value = -0.327
Substitution = PKPLKKLRFDIEE [G13E]; value = 1.16
Substitution = PKPLKKLRFDSEG [I11S]; value = 0.67
Substitution = PKPAKKLRFDIEG [L4A]; value = 0.645
Substitution = PKPLKKLRFDIIG [E12I]; value = 1.22
Substitution = PKPPKKLRFDIEG [L4P]; value = 0.789
Substitution = PKPLKKLRFIIEG [D10I]; value = -0.377
Substitution = PKPLKKLRFDIEW [G13W]; value = 0.832
Substitution = PKPEKKLRFDIEG [L4E]; value = 0.215
Substitution = PKTLKKLRFDIEG [P3T]; value = -0.44
Substitution = PKPLKKLRFDIVG [E12V]; value = -0.209
Substitution = PKPLKKLRWDIEG [F9W]; value = 0.12
Substitution = PKPLLKLRFDIEG [K5L]; value = -1.06
Substitution = PKPLKKLRTDIEG [F9T]; value = 0.447
Substitution = PKPWKKLRFDIEG [L4W]; value = 0.383
Substitution = PKPLKKLRFDCEG [I11C]; value = 0.436
Substitution = PKPLKKLRFDIEA [G13A]; value = 0.919
Substitution = PKPLKKLPFDIEG [R8P]; value = 0.54
Substitution = PKPLKKLRFDING [E12N]; value = 0.941
Substitution = PKQLKKLRFDIEG [P3Q]; value = 0.306
Substitution = PKPLKKLRFDGEG [I11G]; value = 0.646
Substitution = PKPLKKFRFDIEG [L7F]; value = 0.474
Substitution = PKPLTKLRFDIEG [K5T]; value = 0.951
Substitution = PKPLKKLRFDYEG [I11Y]; value = -0.187

Other studies, line by line
Substance = PhoQ, residues 284 288 289 292 302 303 TLASMF; target = PhoP, residues 12 14 15 18 19 SMASL (Escherichia coli, UniProt P23836); test = Sort-seq, measured: YFP reporter; system = E. coli; conditions = PhoQ-PhoP variant library, together with: 10 µM Mg2+; how to read = baseline: high Mg2+ state, higher = stronger signaling; measurement = fold induction; value = 5.19

Some of these lines once more (study 3):
Substitution = PKPLKELRFDIEG [K6E]; value = -0.327
Substitution = PKPLKKLRFDGEG [I11G]; value = 0.646
Substitution = PKPLKKFRFDIEG [L7F]; value = 0.474
